Published values gathered from unrelated publications.
Every numbered part comes from another study and shows a few of its results, in no order. Substitutions count along the parent as printed.
Chain of UniProt Q2M2I8 (whole entry, looked up): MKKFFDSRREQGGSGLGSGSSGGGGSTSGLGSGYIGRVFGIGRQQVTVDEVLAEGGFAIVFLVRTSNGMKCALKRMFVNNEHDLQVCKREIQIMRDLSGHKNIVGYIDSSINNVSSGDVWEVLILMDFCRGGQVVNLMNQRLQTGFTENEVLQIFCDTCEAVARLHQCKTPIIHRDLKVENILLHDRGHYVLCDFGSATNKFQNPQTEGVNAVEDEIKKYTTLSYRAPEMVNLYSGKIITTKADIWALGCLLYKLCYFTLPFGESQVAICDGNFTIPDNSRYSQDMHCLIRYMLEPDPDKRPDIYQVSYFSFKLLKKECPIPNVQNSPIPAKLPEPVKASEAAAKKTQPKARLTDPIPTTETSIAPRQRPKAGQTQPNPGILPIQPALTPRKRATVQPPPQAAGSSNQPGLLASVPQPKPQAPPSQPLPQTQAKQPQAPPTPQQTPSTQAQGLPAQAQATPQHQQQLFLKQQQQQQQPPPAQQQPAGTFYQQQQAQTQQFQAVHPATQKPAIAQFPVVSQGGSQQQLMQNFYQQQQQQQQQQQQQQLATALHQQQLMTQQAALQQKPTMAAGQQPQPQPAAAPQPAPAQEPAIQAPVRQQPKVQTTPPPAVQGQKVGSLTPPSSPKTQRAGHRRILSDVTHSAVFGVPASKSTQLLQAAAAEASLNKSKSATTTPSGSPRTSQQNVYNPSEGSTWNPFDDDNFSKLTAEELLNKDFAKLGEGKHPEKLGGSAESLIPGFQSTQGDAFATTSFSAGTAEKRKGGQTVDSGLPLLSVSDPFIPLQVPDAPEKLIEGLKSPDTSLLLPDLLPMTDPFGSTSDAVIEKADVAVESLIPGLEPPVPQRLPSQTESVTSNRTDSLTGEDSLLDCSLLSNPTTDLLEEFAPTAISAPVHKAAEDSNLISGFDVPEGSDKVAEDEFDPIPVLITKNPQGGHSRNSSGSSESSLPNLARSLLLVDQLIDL

Study 1
Host: mouse
Medium: microsomes or S9
Concentration: 2 µM
Time: 0.5 h
Structure (SMILES)	remaining compound [%]
COc1cc(Cl)c(NC(=O)c2cc(S(=O)(=O)N3CCCCC3)c[nH]2)c(OC)c1	1.92
CCc1ccc(OCC(=O)c2cc(CC)c(OC)cc2OC)cc1	4.25
O=S1(=O)N=C(N(CCOc2ccccc2)CCOc2ccccc2)c2ccccc21	0.861

Study 2
Target: ABI1, truncated, D143A, DHFR fusion (Arabidopsis thaliana)
Method: DHFR PCA, deep sequencing
Medium: yeast
Setting: methotrexate growth selection, single substitutions
With: (+)-ABA 0.11 µM
Relative to: wild-type fitted maximum
Direction: higher = stronger binding
Parent: PYL1, truncated, DHFR fusion (Arabidopsis thaliana); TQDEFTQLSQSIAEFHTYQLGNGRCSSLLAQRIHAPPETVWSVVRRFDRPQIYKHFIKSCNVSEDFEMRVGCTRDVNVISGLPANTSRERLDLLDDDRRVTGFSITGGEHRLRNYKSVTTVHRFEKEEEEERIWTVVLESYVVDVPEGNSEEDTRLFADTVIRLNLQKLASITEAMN; partner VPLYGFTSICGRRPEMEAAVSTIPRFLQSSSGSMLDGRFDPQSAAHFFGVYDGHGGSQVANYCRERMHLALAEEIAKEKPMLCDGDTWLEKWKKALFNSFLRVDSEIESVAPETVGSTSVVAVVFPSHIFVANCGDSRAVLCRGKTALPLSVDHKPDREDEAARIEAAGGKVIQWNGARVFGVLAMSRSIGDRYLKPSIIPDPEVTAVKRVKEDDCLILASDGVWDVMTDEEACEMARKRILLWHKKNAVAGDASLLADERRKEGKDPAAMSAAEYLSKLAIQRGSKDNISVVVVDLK
Substitution	relative binding score
H110V	11.3%
V143K	-0.964%
L94Y	-1.45%
A170P	-0.0927%
N77W	18%
R111A	2.26%
H16A	-6.1%
D75I	42.6%

Study 3
Target: RNA binding protein fox-1 homolog 2, RRM domain, GST-SBP tag (RBFOX2, Homo sapiens, UniProt O43251-10, residues 100-194)
Method: RNA Bind-n-Seq
Molecule type: RNA
Medium: in vitro
Concentration: 365 nM
Setting: natural RNA segment, single round, ends assumed
Relative to: no-protein control
Direction: higher = stronger binding
Residues (chain): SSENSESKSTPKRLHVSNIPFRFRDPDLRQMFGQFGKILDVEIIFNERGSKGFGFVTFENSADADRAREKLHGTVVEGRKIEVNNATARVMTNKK
Oligonucleotide	RBNS enrichment (R)
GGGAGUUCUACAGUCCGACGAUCAGGUUUCUAAAAGCAAAAUAAUGAAUGGCCACUGAUGAAAAAUUGUAUUAUUUAUUCAUUCACUGUUUUCUAGUGUUUCUGUGUUUAUUACUGUUCAGCAUCAUCUUGGUUGGAAUUCUCGGGUGCCAA	0.714
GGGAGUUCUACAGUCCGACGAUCGACCAUGUGCAAUUCCCAGGUAAGGGUACCUCAGACCCUUCCUGUCCAUGUAGUUCCGACUGCAGCAGUGUCUUAACUGAGUAGUCCAUUAAAGUACAAGUUGAUCAUUGUGGAAUUCUCGGGUGCCAA	0.311
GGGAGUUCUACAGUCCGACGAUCCGUUGGGUGUGUUGGAAUUGUUCUCUUCGGCCUUGUUCUGCCUUGUGAUCUUUUCAAUUCAGUGAAUAAACCAGGAAUCCAUUUUUUCACCAACCCACCCUGUAGAUUGUUGGAAUUCUCGGGUGCCAA	0.541
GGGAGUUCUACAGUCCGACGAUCAAGACAAAAUGAAACAAAACCGAGCAGUUAUGGGUUUUGUUCUAUAGGAUGCCAUCAGCCAUCGAGGGGGCGUCUUGCCUCUGCCCAUCGCUCCAGGAGUCUACGCUGUCUGGAAUUCUCGGGUGCCAA	0.493
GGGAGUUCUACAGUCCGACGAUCUUGACUAUGAAUGUUAUCGGAUUACUGAAUUGUAUCAAUUUGUUUGUGUUCAAUAUCAGCUUUGAUAAUUGUGUACCUUAAGAUAUUGAAGGAGAAAAUAGAUAAUUUACUGGAAUUCUCGGGUGCCAA	4.14
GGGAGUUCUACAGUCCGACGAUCCCAUUAGCAACACUAAAACUUGAUCAUUAACAGCCCCCUGUGCAUAUGAGUGGAUCAAACCGGUUCUGUUCUUUCUUGUGUUGCCAUGUUACUAUGCCUCAAGCCCAGUUUGGAAUUCUCGGGUGCCAA	1.04
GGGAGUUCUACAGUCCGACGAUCUUCAAAACAUUUUGAAAAGCAUUUACUUUUUUGACCACGAGCCAUGAGUUUUCAAAAAAAUCGGGGGUUGUGUGGGUUUUUGGUUUUUGUUUUAGUUUUUGGUUGCGUUGUGGAAUUCUCGGGUGCCAA	0.629
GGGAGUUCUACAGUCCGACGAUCCCUCUGAGGGUAGAUUUUUUUUUUUAAUCCGGUCCCUUGGAUUUAAAAAUAAAAUUAAUUUUCUGUUAUAGUGGGCAUGUGAUGUCUUACUGCACUUGCUGUCUUUCCAAUGGAAUUCUCGGGUGCCAA	0.622

Other studies, line by line
SMILES	target or system	assay	test system	setting	scale	endpoint	result
CC(C)C[C@@H]1NC(=O)[C@H](CC(C)C)NC(=O)[C@@H](CC(C)C)NC(=O)[C@@H](CC(C)C)NC(=O)[C@H](C(C)C)NC(=O)[C@H](CC(C)C)NC(=O)[C@@H](CC(C)C)NC1=O	–	PRP chromatography estimate	1,9-decadiene/PBS	pH 7.4	–	logD	2.3
CNC(=O)Nc1ccc2c(c1)C1(CC2)OC(=O)N(CC(=O)N(Cc2ccc(F)cc2)[C@@H](C)C(F)(F)F)C1=O (single isomer, unassigned)	AAK1 (Homo sapiens, UniProt Q2M2I8)	KINOMEscan	–	1 µM	relative to: control	remaining binding	100%
CC(C)C[C@@H]1NC(=O)[C@H](C)NC(=O)[C@H](CCC(=O)N2CCCC2)NC(=O)[C@H](C)NC(=O)[C@H](CC(C)C)NC(=O)[C@H](CC(C)C)NC(=O)[C@H](CC(C)C)NC1=O	–	PRP chromatography estimate	1,9-decadiene/PBS	pH 7.4	–	logD	-1.86
O=C(c1ccccc1)c1ccc2n1CCC2C(=O)O (centres unmarked)	Sarcocystis neurona	parasite growth	–	10 µM	–	inhibition	-45.2%
